{"data": "Assay results pooled from the literature", "note": "A part holds a random share of what one study measured. Positions count from the first letter of the parent shown."}
{"data": "Study 1", "target": "RNA binding protein fox-1 homolog 2, RRM domain, GST-SBP tag (RBFOX2, Homo sapiens, UniProt O43251-10, residues 100-194)", "technique": "RNA Bind-n-Seq", "form": "RNA", "medium": "in vitro", "concentration": "365 nM", "setting": "natural RNA segment, single round, ends assumed", "reference": "no-protein control", "reading": "higher = stronger binding", "constant ends, left off below": "GGGAGUUCUACAGUCCGACGAUC … UGGAAUUCUCGGGUGCCAA", "Residues (chain)": "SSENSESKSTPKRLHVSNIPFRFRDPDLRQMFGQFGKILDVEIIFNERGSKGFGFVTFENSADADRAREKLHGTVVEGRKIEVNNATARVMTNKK"}
{"Oligonucleotide": "UUUAGUUGUAUUUUAUACCUGUGAUUUUAUCUCACAUAUCUUGGUAGGAUGGAGGAGACAGAGGUCUGUUGUCAUCUACUGUCGCUGGGUAAUAAGGAGGGAGCUCUGGA", "RBNS enrichment (R)": 0.809}
{"Oligonucleotide": "AAACUAAUUAAUAGCUUUGGACACUUAAAAGAGCUCUAAAUUUGCUUGUACAUAAAGGCUUAAUUUGUUUUCCUUGUUAGGGUCAAGGGUGUCCUCCACUCUUUAACAGC", "RBNS enrichment (R)": 1.12}
{"Oligonucleotide": "GUUUUAAACAAAACAACAGGAAGAACAGGACCAGGACUCUCCUAUACACAGUGUGUAGGAACAGCUGCCUGGGAAGCUGUGUGUCUGUCCCUCUGUUCACUACCCUCUUG", "RBNS enrichment (R)": 0.845}
{"Oligonucleotide": "UGUUGCUGCAGAUAAAUGAUGAUUGUCGUGGGAUAUCUGGAUCACUGAGCUCUGUGCUUUCAUUCCUAGAGAUGUUUCUCAUUCCCAUUUAGUGAAAUGCUGUUGCCCCA", "RBNS enrichment (R)": 0.665}
{"Oligonucleotide": "AUGGUAGGCUGAGUUUGCUGUCCAAUAGCUGUGUGACUUUGGGCAAGUCCCAGUCACCUUCCUGGCCUCACUGUCCUCAGCUGUAACCUGGGCAUUUGAGAGGUACAGGC", "RBNS enrichment (R)": 0.309}
{"Oligonucleotide": "AGUCACGAAGCUAUAUGCCAGGCUGCAAAGGAUGUCAAUAGCAUGUGGCAAUGGGGGUUUUUAUUGCCAUUCAUUCUUUAGCAACCUGGACUGCCAUCUUGGCAGACCUG", "RBNS enrichment (R)": 9.29}
{"Oligonucleotide": "CAGCCCAUGCCCACCUGCCCAUCACAGGGUUGGGCCCAGAUCUGGUCCCUUGCAGCUAGUUUUCUAGAAUUUAUCACACUUCUGUGAGACCCCCACACCUCAGUUCCCUU", "RBNS enrichment (R)": 0.209}
{"Oligonucleotide": "UGCCCCUUCAAUCUUACCUUUUCCUACAAUGCCAUGUAAGUGGGGUCAGCCAUGAUGUCAUGUGUGUCAGUAGAGGGUCUCCUCUCCCUGCUGAGUAGUAUUCUAUCAUA", "RBNS enrichment (R)": 0.426}
{"data": "Study 2", "target": "CCNF, cyclin fold, Cln2 fusion (human)", "technique": "yeast growth competition, sequencing", "medium": "yeast", "setting": "strong parent motif", "reference": "not given", "reading": "higher = stronger binding", "parent": "REV3L docking peptide (human); PPVIIKYIIINRF"}
{"Variant": "PPVIIKYAIINRF [I8A]", "normalised enrichment score": 1.03}
{"Variant": "PPVAIKYIIINRF [I4A]", "normalised enrichment score": 0.64}
{"Variant": "PPVIIKYIAINRF [I9A]", "normalised enrichment score": 0.653}
{"Variant": "PPVIIKYIIINRA [F13A]", "normalised enrichment score": 0.834}
{"Variant": "PPVIAKYIIINRF [I5A]", "normalised enrichment score": 0.421}
{"Variant": "APVIIKYIIINRF [P1A]", "normalised enrichment score": 0.905}
{"Variant": "PAVIIKYIIINRF [P2A]", "normalised enrichment score": 1.77}
{"data": "Study 3", "target": "Interferon regulatory factor 7, full length, phosphomimetic (IRF7, Homo sapiens, UniProt Q92985, residues 1-503, S101K/S471D/S472D/S475D/S476D/S477D/S483D/S484D/S487D)", "technique": "protein-binding microarray", "form": "double-stranded DNA, one strand shown", "medium": "in vitro", "concentration": "250 nM", "setting": "60-bp whole probe", "added": "salmon DNA 0.4 mg/ml", "reference": "random background probes", "reading": "higher = stronger binding", "constant ends, left off below": "GCCTAGCAC … GTCTTGATTCGCTTGACGCTGCTG", "Target sequence (chain)": "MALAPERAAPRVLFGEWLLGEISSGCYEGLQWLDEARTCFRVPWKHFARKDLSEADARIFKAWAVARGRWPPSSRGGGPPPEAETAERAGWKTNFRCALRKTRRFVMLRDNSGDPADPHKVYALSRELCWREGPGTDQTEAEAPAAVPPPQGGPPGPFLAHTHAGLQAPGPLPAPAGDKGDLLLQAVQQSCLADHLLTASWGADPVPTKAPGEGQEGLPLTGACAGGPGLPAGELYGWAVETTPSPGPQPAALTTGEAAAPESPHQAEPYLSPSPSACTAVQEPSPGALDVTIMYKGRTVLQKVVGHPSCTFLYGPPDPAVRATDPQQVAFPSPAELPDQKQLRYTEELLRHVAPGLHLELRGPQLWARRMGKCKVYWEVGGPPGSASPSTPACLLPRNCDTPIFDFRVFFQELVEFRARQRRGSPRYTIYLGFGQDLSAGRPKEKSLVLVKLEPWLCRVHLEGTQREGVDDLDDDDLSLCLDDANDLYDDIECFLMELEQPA"}
{"Oligonucleotide": "TAGTTTATACTCTAGATGATGTGCTAG", "log fluorescence [z-score]": 0.733}
{"Oligonucleotide": "GACGTTTTCGACTTTCGGGACGTGCTA", "log fluorescence [z-score]": 3.65}
{"Oligonucleotide": "TTAGGTATCGGGACCGGGTTAGTGCTA", "log fluorescence [z-score]": 0.382}
{"Oligonucleotide": "TCAATGTTACATTTATAACTGTGCTAG", "log fluorescence [z-score]": 0.15}
{"Oligonucleotide": "GACGGTTTCGACTTCCGGGACGTGCTA", "log fluorescence [z-score]": 11.5}
{"Oligonucleotide": "GACGGATTGCTTTTCCTGACGTGCTAG", "log fluorescence [z-score]": -0.00666}
{"Oligonucleotide": "CTGTTTTTGCTTTCCTTCATGTGCTAG", "log fluorescence [z-score]": 3.02}
{"Oligonucleotide": "TTAGATTTCAGTTTCGAGTAGTGCTAG", "log fluorescence [z-score]": 5.25}
{"Oligonucleotide": "TTCTCCATGGGTATGGCCTAGTGCTAG", "log fluorescence [z-score]": 0.26}
{"Oligonucleotide": "GACGGTTTCGATTTCGGGACGTGCTAG", "log fluorescence [z-score]": 13.5}
{"Oligonucleotide": "TCATTTTTCTTTAAAAGACTGTGCTAG", "log fluorescence [z-score]": 1.17}
{"Oligonucleotide": "TTAGGTATCGGTTTCGGTCAGTGCTAG", "log fluorescence [z-score]": 7.15}
{"Oligonucleotide": "GACGGTCTCGGGTATCGGGACGTGCTA", "log fluorescence [z-score]": 1.17}
{"Oligonucleotide": "TTACGTTTCGACACTGGGTTAGTGCTA", "log fluorescence [z-score]": 2.01}
{"Oligonucleotide": "TACGGTTTCGGACTGGGGACGTGCTAG", "log fluorescence [z-score]": 4.16}
{"Oligonucleotide": "TCATCTACAGGGTTTCACACTGTGCTA", "log fluorescence [z-score]": 0.0167}
{"Oligonucleotide": "GACGAGCTGAGTCTCGAGACGTGCTAG", "log fluorescence [z-score]": -0.187}
{"Oligonucleotide": "TTAGAACTGGGTTTCGGTTAGTGCTAG", "log fluorescence [z-score]": 7.09}
{"Oligonucleotide": "TTCGGTTCCGGTTTCGGTTAGTGCTAG", "log fluorescence [z-score]": 10.3}
{"data": "Study 4", "target": "RING finger protein unkempt homolog, zinc fingers 1-6, GST-SBP tag (UNK, Homo sapiens, UniProt Q9C0B0, residues 30-357)", "technique": "RNA Bind-n-Seq", "form": "RNA", "medium": "in vitro", "concentration": "not given", "setting": "RNA with constant flanks, ends assumed", "reference": "input RNA pool", "reading": "higher = stronger binding", "constant ends, left off below": "GGGAGUUCUACAGUCCGACGAUC … CAACAGAGGAUUGAGCAUCA", "UniProt Q9C0B0, sequence (30-357, looked up)": "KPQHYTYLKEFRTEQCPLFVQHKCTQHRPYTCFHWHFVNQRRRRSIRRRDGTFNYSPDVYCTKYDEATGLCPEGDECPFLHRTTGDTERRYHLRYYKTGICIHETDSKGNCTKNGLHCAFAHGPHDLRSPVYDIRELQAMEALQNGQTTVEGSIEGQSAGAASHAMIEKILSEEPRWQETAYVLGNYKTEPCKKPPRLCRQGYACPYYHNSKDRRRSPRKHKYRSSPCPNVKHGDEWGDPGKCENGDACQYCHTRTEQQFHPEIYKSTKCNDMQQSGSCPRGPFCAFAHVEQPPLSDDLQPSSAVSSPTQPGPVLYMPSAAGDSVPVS"}
{"Oligonucleotide": "GACUAUCACUUUGUCAUUUCUAGAGAACAAAUGGAGAAAGAUAUCCAAGAGCACAAAUUUACCGAAGCUGGCCAGUACAAUGACAAUUUAUACGGAACCAGUGUGCAAUCUGUGAGAUUU", "bound/input enrichment [ratio]": 0.315}
{"Oligonucleotide": "UGAUGACUGCAUAGCAAACUGGCAGAUACAGUCCCCAUGGUCAGUGGCUGACCAGGGUGUCACCGGCGCGAUCUCAAUUGCUAGAUGUGAGCACACGCUUGACAGUCUGUUUAGAAAUGU", "bound/input enrichment [ratio]": 0.218}
{"Oligonucleotide": "CUUCCCCUUAAAUAAUUGUGUUCAUUUUUGUUUUGUUUCCUUGUGUACUCCAGCAUUGGUUACCGUCAUGGGAAAGGAAGGUGUCCACGCAGGCACAAUUAACAAGAAAACAUAUGAACU", "bound/input enrichment [ratio]": 0.33}
{"Oligonucleotide": "CGAGCAGUGGAGUGUUGUGUGAGGUUGCUUCAUGUGCGAAAUGGAAAUUGUAAAUAUCAUCCCGGUGAAGAAACAUUUAAAUUAGCUCAGACAUACAUGGAUAAGCUGUCUAAACAUGGC", "bound/input enrichment [ratio]": 0.371}
{"Oligonucleotide": "GCAAGAGAUGAUGAGGCAGCUGCAGUUGCACUUUCCUCCCUGAUUCAUGCUUUGGAUGACUCCGACAUGGUGGCCAUAGUUCGAUAUGCUUAUGACAAAAGAGCUAAUCCUCAAGUCGGC", "bound/input enrichment [ratio]": 0.329}
{"Oligonucleotide": "CUAGAAUGUGAAUUUUACCUCUUAGAAUUAAUGGACUGUUGCUUGAUAGUGUAUCAUCCUUACCGACCUUUGCUCCAGUAUGUGCAGGACAUGGGCCAGGAAGACGUGCUGCUUCCCCUU", "bound/input enrichment [ratio]": 1.67}
{"data": "Other studies, line by line"}
{"Molecule": "PhoQ, residues 284 288 289 292 302 303 SCEHLI", "target": "PhoP, residues 12 14 15 18 19 QYFSL (Escherichia coli, UniProt P23836)", "assay": "Sort-seq, refers to: YFP reporter", "test system": "E. coli", "conditions": "PhoQ-PhoP variant library, added: 10 µM Mg2+", "how to read": "reference: high Mg2+ state, higher = stronger signaling", "endpoint": "fold induction", "result": 14.3}
{"note": "Some of these lines once more (study 1):"}
{"Oligonucleotide": "AAACUAAUUAAUAGCUUUGGACACUUAAAAGAGCUCUAAAUUUGCUUGUACAUAAAGGCUUAAUUUGUUUUCCUUGUUAGGGUCAAGGGUGUCCUCCACUCUUUAACAGC", "RBNS enrichment (R)": 1.12}
{"Oligonucleotide": "UGCCCCUUCAAUCUUACCUUUUCCUACAAUGCCAUGUAAGUGGGGUCAGCCAUGAUGUCAUGUGUGUCAGUAGAGGGUCUCCUCUCCCUGCUGAGUAGUAUUCUAUCAUA", "RBNS enrichment (R)": 0.426}
{"Oligonucleotide": "CAGCCCAUGCCCACCUGCCCAUCACAGGGUUGGGCCCAGAUCUGGUCCCUUGCAGCUAGUUUUCUAGAAUUUAUCACACUUCUGUGAGACCCCCACACCUCAGUUCCCUU", "RBNS enrichment (R)": 0.209}
{"Oligonucleotide": "UGUUGCUGCAGAUAAAUGAUGAUUGUCGUGGGAUAUCUGGAUCACUGAGCUCUGUGCUUUCAUUCCUAGAGAUGUUUCUCAUUCCCAUUUAGUGAAAUGCUGUUGCCCCA", "RBNS enrichment (R)": 0.665}
{"Oligonucleotide": "AGUCACGAAGCUAUAUGCCAGGCUGCAAAGGAUGUCAAUAGCAUGUGGCAAUGGGGGUUUUUAUUGCCAUUCAUUCUUUAGCAACCUGGACUGCCAUCUUGGCAGACCUG", "RBNS enrichment (R)": 9.29}
{"Oligonucleotide": "AUGGUAGGCUGAGUUUGCUGUCCAAUAGCUGUGUGACUUUGGGCAAGUCCCAGUCACCUUCCUGGCCUCACUGUCCUCAGCUGUAACCUGGGCAUUUGAGAGGUACAGGC", "RBNS enrichment (R)": 0.309}
{"Oligonucleotide": "GUUUUAAACAAAACAACAGGAAGAACAGGACCAGGACUCUCCUAUACACAGUGUGUAGGAACAGCUGCCUGGGAAGCUGUGUGUCUGUCCCUCUGUUCACUACCCUCUUG", "RBNS enrichment (R)": 0.845}
